# Experimental data pooled from the literature.
# A part holds a random share of what one study measured. Positions count from the first letter of the parent shown.

# Block 1
# Target: ABI1, truncated, D143A, DHFR fusion (Arabidopsis thaliana)
# Technique: DHFR PCA, deep sequencing
# Matrix: yeast
# Notes: methotrexate growth selection, single substitutions
# Added: (+)-ABA 0.032 µM
# Baseline: wild-type fitted maximum
# Reading: higher = stronger binding
# Starting sequence: PYL1, truncated, DHFR fusion (Arabidopsis thaliana); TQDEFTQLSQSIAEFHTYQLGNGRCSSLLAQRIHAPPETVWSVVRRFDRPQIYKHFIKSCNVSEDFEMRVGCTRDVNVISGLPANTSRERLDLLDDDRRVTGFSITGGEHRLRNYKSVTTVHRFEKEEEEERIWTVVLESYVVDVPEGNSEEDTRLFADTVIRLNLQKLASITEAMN; partner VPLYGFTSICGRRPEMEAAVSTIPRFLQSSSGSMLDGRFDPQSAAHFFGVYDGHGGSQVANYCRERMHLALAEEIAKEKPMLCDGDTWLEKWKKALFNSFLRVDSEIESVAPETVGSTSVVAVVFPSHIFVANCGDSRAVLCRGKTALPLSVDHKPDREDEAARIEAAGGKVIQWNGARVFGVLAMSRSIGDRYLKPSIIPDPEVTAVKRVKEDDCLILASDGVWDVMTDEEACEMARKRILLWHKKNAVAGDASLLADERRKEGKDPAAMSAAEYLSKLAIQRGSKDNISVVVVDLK
Change,relative binding score [%]
V143A,3.42
G23H,13.7
S26P,0.199
D75F,22.4
V145M,-11.2
Q7S,27.1
C60I,-0.369
L94M,5.12
E130D,47.7
T160V,-3.19
F124L,36.4
T86Q,5.89
P37F,-2.75
S80F,57.7
Q10E,52.3

# Block 2
# Target: Fragile X messenger ribonucleoprotein 1, C-terminal low-complexity region (Fmr1, Mus musculus, UniProt P35922)
# Technique: RNA Bind-n-Seq
# Form: RNA
# Matrix: in vitro
# Concentration: 200 nM
# Notes: whole 134-nt RNA, ends assumed
# Added: 150 mM LiCl
# Baseline: input library
# Reading: higher = stronger binding
# Each molecule: 7-deaza-guanosine replaces G
Strand,log2 enrichment
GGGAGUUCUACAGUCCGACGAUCUUUGAAGAUCAGCUUCAGCAAUGGUUGUCUGAAGACUCAGGAGCAUUUACGGAUUUAACUUCCCUUCCCCUCUAUCUUCCUCAGACUCUAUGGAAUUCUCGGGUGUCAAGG,0.766
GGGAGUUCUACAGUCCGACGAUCCAAACUUAAAGUCUCCCUUGCUCGGAAGAAGCCUCCAAUGAACAGUAUGCGGGGUGGUCUGCCACCCCGUGAGGGCAGAGGCAUGCCACCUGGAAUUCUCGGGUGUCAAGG,1.83
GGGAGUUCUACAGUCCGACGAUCUGGGAGGUGGAUUUUGUUUAUUUUUUUAGCUCAUUUCCAGGGGUGGGAAUUUUUUUUUAAUAUGUGUUAUGAAUAAAGUUGUUUUUGAAAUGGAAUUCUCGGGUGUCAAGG,-0.184
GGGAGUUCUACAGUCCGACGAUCACCAUGCAGGUGGGCAUCUUUGGGAAGGGGGGCAAGGGGGGGAUAGGGAGGGGGGUAACACUUUGGGAACAGGUGGUCCCAGGUCGUUUCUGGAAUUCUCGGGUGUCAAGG,1.09
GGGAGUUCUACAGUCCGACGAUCGCAGGAAGUAAAAACAAAUGGAAAUGCUUCGGAUAGUGGCAGGGGUGGGGGUUGCUAAGGAAAGGGUGGGAUGGGAAAGGGUAAAGAGUUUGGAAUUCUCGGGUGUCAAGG,1.7
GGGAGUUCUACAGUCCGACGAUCCCUCAAGUCCUGUGCUACACAUCGUAUGUACCGAAUCGGGGUGGGUGGUGGGGAAAGUAUUAUGUUACGCCGUUCGGAUCUGCACUUCCAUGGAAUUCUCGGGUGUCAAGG,-0.648
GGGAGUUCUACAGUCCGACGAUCUAACUUUAGAGGAGGAUCUGAUGGAUAUGGCAGUGGACGUGGAUUUGGGGAUGGCUAUAAUGGGUAUGGAGGAGGACCUGGAGGUUGCAAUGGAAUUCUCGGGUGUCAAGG,0.381
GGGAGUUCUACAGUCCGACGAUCUAGUGAAAUUUCUAAUAUAUAUAUUUUUUUCUUUAGGAGAAGAAACGAAUGCAUCAGAUCAACAGAAUGAACCCCAGUUAGGCCUGAAAGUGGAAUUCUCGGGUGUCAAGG,-2.53
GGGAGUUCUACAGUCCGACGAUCACCAUGCAGGUGGGCAUCUUUGGGAAGUGGGGCAAGGGGGGGAUAGGGAGGGGGGUAACACUUUGGGAACAGGUGGUCCCAGGUCGUUACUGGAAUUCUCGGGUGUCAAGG,0.862
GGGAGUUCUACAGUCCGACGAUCCACAGACAACACGCACCCACACAGACACAGAGGGAAGGGGUUGGGAUGGGGACAGGGUGCACAGCAGGGCAGGGUAGGACCCCAGCCCCUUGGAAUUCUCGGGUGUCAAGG,0.245
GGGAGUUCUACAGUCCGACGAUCUUCCCACAGCCCAAAAAUCUUCUCAACAGUGUGAUUGGAAGAGCCCUCGGCAUCUCACAUGCAAAAGACAAACUAGUCUACGUGCACACAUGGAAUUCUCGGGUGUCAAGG,0.431

# Block 3
# Target: Max-binding protein MNT, bHLH-zipper, MAX partner unstated (MNT, Homo sapiens, UniProt Q99583, residues 220-300)
# Technique: protein-binding microarray
# Form: double-stranded DNA, one strand shown
# Matrix: in vitro
# Concentration: not given
# Notes: k-mer, scored over probes, only values ≥0.25
# Reading: higher = stronger binding
# Target sequence (chain): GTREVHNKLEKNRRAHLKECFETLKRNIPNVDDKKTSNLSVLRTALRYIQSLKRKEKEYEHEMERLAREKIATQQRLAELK
Strand,E-score
ACATGAGG,0.404
ATGGGGGC,0.302
AGGCATGC,0.377
AGCATGTG,0.466
AGCACATG,0.483
ACGTTGCA,0.262
AGCCCACG,0.357
CATGCTGA,0.395
CCCCTCCA,0.317
ATGCATGG,0.333
CAATGTGA,0.279
CAATCACG,0.334
CCACGCAG,0.276
CAACCACG,0.409
ATCCACGC,0.366
ATGCTAGC,0.263
ATGCGCAG,0.289
ATGCGCCG,0.307
CCATGAGG,0.391
CACGTGAG,0.49
CGCGTGAA,0.377
ACGTGGAG,0.445
ACATGCGC,0.421
GGTGTGCA,0.262
AACCAACG,0.297

# Block 4
# Target: RING finger protein unkempt homolog, zinc fingers 1-6, GST-SBP tag (UNK, Homo sapiens, UniProt Q9C0B0, residues 30-357)
# Chain of UniProt Q9C0B0 (30-357, looked up): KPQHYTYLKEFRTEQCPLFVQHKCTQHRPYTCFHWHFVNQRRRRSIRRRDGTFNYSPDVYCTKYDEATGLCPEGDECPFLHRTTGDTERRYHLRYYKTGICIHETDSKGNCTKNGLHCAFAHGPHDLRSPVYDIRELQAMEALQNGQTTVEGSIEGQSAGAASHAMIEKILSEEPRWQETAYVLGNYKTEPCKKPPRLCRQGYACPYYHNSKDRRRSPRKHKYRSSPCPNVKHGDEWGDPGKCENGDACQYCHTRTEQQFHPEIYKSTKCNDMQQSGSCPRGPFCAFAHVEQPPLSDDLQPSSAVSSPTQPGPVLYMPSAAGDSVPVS
# Technique: RNA Bind-n-Seq
# Form: RNA
# Matrix: in vitro
# Concentration: not given
# Notes: RNA with constant flanks, human-mouse chimeric sites, ends assumed
# Baseline: input RNA pool
# Reading: higher = stronger binding
Strand,bound/input enrichment
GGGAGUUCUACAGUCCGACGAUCAUCAAAUACUUUGGGGACAUCAUUAGUGUGGGACAGAGACUGUUGCAAGGAGCUCGGAUCUUAGGGAUUCCAGUUAUUGUAACAGAACAAUACCCCAAAGGACUUGGCAGCACCGUUCAACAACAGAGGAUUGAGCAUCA,0.161 ratio
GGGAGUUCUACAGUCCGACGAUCUAAGUCCUGUGCCAGCACUUCGCUCAUAAAGUUUUAAAUUCAAGAAAAAUAGUGUUUAUCUUUAGAAUAUUGUAUCCAAUACUUUGCCUAGUAUGUAACUCACUCUUACUGAUAAUAAAACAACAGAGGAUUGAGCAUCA,24 ratio
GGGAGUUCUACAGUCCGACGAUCGAGCCCAGCCGGCAGUUUGUAAAGGACUCAAUUCGGCUGGUUAAAAGAUGCACUAAACCCGACAGAAAAGAAUUCCAGAAGAUUGCCAUGGCAACAGCUAUAGGAUUUGCUAUCAUGGGACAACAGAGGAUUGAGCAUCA,0.165 ratio
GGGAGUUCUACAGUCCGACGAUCUACUCAACUUUCUUGCCACGUUUUGAAUUCCAAGACAUUAUUCCUCCAGAUGACUUCCUAACGAGUGAUGAAGAGCAAGAUUCCGUUUUAUUUGGAACUAUGAGAGGACAAGUUGUUGGACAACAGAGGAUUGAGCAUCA,0.194 ratio
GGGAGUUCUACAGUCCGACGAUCAUAAAAGCUAUGUUGAGUGGUCCAGGUCAGUUUGCUGAGAAUGAAACCAAUGAGGUCAAUUUUAGAGAGAUCCCCUCACAUGUGCUAUCAAAAGUGUGCAUGUAUUUUACCUACAAGGUCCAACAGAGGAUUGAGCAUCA,0.182 ratio
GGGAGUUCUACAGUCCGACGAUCUCAUUUUUCUCUUUUCUUUCUUUCCUUUAGGAAAAGCAGAUUAGACUGGUUGUAAGAAAAACAGAAGCCAUGUUUCGAAGACCUGUGUUACAGGUACUUCGUCAGUUUGUAAGACAUGAGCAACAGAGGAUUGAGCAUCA,0.51 ratio
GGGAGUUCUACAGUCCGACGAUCUCAACAGACAACAUCAAAUACCAGCCUAAAGGGGGGCAGGUACAAAUUGUUACUAAGAAGAUAGACUUAAGCCAUGUGACAUCCAAAUGUGGCUCUCUGAAGAACAUCCGCCACAGGCCACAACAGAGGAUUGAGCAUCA,0.174 ratio
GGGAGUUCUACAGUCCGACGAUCAAAUCAUGUGUGUCCAAUAUUGAAAGUGCUUUAUCUACACUCCAAUAUGUAAGCAGUAUAGUAGUUUCUUUAGAGAAUAGGUCAGCCAUUGUAAAGUACAAUGCAAGCUUAGUCACUCCACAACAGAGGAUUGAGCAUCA,13.1 ratio
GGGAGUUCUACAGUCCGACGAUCGUAAUGUGUCCAUUUAAAACUUAUUUUUAUAGCUAGAUAAAUAUUGUUAGUCUUAGACAAUAGCUCACAUUUUUUGAGAAGCAUGCCCUCCCUGUCCAUUUGUCUUAUAACAUGACCCAGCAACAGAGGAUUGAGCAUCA,38.4 ratio
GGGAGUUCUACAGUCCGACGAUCAAAUCGUGUGUGUCCAAUAUUGAAAGUGCUUUAUCUACACUCCAGUAUGUAAGCAGUAUAGUAGUUUCUUUAGAGAAUAGGUCUGCCAUUGUAAAGUACAAUGCAAGCUUAGUCACUCCACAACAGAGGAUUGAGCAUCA,1.74 ratio
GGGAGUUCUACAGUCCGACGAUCUUACCCGAGAACGAGGAUGAGCUGGAGAGCACCAACAGACGCUAUACCAAGAGGGACUGUAGCACUUUCCUCAGAACUAGUGAGACGGGCAUCGUGGACCAGGUCAUGGUCACUCUCAACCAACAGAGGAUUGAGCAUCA,0.324 ratio

# Repeated from above (block 3):
Strand,E-score
CATGCTGA,0.395
CCCCTCCA,0.317
ATGCATGG,0.333
CAATGTGA,0.279
CAATCACG,0.334
CCACGCAG,0.276
CAACCACG,0.409
ATCCACGC,0.366
ATGCTAGC,0.263
